Experimental data gathered from unrelated publications.
Lines come from different studies, so protocols differ. “And” joins repeats or separate records; there may be more than shown. ± marks the error that the study gave.
ACHE: Acetylcholinesterase (ACHE, Homo sapiens, UniProt P22303)
Sequence of UniProt Q01959 (whole entry, unmodified, looked up): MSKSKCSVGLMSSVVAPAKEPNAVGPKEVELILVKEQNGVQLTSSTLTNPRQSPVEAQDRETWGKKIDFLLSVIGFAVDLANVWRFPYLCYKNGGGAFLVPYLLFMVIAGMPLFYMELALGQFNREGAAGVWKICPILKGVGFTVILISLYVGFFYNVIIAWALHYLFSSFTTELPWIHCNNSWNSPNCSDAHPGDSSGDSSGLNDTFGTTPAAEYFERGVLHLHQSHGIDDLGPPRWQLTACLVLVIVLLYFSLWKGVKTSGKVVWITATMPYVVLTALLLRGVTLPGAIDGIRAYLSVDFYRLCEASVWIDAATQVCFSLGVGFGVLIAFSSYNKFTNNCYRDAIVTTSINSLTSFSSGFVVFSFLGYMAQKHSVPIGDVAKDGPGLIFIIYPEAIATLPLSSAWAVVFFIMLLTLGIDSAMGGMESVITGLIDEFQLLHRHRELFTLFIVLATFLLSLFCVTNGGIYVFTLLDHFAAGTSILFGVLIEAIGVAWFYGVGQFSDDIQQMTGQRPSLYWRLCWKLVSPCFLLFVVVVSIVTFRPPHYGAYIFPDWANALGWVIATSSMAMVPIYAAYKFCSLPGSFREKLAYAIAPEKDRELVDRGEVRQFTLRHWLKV
Sequence of UniProt P22303 (whole entry, looked up): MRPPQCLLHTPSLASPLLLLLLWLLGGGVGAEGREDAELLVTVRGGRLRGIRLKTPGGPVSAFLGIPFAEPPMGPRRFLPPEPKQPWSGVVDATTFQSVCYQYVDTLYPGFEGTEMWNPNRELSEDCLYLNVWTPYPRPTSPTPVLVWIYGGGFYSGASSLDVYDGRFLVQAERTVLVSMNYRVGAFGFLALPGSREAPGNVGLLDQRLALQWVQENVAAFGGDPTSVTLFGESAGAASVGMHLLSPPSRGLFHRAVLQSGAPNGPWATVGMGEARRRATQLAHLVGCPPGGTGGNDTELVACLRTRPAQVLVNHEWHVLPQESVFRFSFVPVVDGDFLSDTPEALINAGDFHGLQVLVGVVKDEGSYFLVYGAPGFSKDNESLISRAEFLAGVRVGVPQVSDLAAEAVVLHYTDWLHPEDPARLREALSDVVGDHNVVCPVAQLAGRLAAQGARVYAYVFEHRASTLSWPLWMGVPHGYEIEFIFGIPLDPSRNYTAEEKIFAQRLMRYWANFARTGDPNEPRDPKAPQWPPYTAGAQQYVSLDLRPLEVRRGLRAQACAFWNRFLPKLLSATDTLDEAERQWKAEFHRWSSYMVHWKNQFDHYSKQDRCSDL
Sequence of UniProt P49336 (whole entry, looked up): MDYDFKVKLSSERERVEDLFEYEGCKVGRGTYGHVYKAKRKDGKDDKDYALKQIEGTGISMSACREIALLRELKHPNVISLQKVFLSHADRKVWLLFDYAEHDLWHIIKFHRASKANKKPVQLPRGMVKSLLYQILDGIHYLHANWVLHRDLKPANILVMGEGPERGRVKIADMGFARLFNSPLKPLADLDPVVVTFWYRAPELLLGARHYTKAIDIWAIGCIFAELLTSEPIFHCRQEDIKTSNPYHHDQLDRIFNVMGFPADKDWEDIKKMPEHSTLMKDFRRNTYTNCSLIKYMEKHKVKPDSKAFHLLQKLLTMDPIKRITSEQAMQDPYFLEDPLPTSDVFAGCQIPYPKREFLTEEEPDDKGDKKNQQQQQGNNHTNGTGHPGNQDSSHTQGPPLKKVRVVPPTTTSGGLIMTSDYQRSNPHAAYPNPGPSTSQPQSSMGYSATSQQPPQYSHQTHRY
Sequence of UniProt Q92993 (whole entry, looked up): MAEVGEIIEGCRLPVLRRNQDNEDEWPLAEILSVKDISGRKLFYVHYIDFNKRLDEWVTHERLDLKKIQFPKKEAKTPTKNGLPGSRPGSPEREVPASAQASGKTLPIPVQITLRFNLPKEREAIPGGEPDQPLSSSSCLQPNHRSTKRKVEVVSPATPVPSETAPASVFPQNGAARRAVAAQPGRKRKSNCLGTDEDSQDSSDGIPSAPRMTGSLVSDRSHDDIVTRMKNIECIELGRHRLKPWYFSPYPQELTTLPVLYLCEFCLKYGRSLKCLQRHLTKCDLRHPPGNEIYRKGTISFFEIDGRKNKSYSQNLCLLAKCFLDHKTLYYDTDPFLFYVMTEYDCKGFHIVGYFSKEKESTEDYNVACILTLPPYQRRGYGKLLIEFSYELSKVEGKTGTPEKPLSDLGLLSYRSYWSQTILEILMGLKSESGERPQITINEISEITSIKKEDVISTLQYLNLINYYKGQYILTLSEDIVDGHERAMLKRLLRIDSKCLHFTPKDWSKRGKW
Sequence of UniProt Q8NFJ6 (whole entry, looked up): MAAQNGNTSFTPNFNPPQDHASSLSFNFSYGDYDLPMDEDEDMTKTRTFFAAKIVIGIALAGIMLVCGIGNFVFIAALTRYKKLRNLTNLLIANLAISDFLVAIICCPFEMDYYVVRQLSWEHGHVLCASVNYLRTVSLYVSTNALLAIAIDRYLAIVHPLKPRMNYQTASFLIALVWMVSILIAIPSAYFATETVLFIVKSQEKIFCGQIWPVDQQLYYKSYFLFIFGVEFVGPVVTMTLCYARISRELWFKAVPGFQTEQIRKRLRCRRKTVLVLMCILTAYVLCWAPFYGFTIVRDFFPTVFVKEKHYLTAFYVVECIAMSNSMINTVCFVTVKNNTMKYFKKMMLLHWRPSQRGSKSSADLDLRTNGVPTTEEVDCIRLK
Sequence of UniProt Q16288 (whole entry, looked up): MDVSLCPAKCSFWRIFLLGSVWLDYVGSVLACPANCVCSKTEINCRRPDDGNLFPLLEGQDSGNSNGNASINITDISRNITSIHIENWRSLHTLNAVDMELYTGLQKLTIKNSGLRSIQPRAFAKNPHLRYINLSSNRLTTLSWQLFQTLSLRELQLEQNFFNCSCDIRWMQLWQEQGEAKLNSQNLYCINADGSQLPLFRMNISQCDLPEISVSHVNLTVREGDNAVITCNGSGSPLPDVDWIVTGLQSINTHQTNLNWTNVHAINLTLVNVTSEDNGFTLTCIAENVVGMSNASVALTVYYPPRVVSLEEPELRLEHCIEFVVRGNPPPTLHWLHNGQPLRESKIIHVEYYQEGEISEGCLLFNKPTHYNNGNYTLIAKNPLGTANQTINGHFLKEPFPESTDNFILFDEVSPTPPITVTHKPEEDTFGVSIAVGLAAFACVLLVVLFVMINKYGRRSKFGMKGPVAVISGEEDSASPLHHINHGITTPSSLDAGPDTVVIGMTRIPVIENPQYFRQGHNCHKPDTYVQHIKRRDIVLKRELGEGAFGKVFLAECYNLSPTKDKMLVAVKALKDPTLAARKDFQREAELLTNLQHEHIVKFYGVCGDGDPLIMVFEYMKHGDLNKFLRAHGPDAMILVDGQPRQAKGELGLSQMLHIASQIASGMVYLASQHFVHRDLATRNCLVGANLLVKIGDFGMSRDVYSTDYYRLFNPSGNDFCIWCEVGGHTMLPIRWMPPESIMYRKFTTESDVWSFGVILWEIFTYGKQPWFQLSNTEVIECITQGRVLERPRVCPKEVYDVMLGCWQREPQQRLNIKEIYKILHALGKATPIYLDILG
Sequence of UniProt Q96S44 (whole entry, looked up): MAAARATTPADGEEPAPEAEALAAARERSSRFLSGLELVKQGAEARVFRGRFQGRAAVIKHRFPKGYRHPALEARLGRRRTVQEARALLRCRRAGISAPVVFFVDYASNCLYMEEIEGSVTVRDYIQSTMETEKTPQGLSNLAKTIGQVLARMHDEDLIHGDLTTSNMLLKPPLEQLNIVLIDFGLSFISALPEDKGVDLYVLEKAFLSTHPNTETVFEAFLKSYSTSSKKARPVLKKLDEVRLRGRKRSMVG
Sequence of UniProt P32245 (whole entry, looked up): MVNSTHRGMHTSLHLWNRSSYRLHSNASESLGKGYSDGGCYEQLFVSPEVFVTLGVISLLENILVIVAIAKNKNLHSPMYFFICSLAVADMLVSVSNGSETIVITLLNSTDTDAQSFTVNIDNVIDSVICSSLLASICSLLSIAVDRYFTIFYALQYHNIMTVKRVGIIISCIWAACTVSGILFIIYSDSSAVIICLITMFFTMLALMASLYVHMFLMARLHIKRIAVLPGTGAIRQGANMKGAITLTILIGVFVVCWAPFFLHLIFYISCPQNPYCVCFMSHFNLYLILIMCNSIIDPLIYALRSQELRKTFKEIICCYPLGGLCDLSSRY
Sequence of UniProt P08910 (whole entry, looked up): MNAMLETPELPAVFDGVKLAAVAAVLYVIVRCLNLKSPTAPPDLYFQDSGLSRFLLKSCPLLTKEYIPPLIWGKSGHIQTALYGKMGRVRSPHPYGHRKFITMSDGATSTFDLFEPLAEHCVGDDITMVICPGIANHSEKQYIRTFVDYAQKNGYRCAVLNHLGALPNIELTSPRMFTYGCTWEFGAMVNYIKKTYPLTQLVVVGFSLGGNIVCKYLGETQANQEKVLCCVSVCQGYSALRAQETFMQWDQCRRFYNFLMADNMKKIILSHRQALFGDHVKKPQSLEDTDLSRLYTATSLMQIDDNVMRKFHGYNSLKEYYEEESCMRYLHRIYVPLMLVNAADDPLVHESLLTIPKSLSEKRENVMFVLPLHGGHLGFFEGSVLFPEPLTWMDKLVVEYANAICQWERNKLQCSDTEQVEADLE

SMILES	tested on	test	system	conditions	scale	quantity	result
O=S(=O)([O-])C(F)(F)C(F)(F)C(F)(F)C(F)(F)C(F)(F)C(F)(F)C(F)(F)C(F)(F)F.[K+]	–	RT-qPCR, refers to: Cd36	mouse, ethanol-fed, liver	dose not given	reference: efavirenz	mRNA level	increased
COc1ccc(N2C(=O)N(c3c(C)cccc3Cl)Cc3cnc(Nc4ccc(C5CCN(C)CC5)cc4OC)nc32)nc1	NTRK3 (Homo sapiens, UniProt Q16288)	kinase activity, inhibitor	–	0.5 µM, kinase TRKC	–	inhibition	-2%
CC[C@H](C)[C@H](NC(=O)CNC(=O)[C@@H](N)CCCCN)C(=O)N[C@@H](CC(C)C)C(=O)N[C@@H](CCCCN)C(=O)N[C@@H](CCCNC(=N)N)C(=O)N[C@@H](CCC(=O)O)C(=O)N[C@@H](CCCCN)C(=O)N[C@@H](CCCNC(=N)N)C(=O)N[C@@H](CC(C)C)C(=O)N[C@@H](CCCNC(=N)N)C(=O)N[C@@H](CCCNC(=N)N)C(=O)N[C@@H](CCCCN)C(=O)N[C@@H](CC(N)=O)C(=O)N[C@H](C(=O)N[C@@H](Cc1c[nH]cn1)C(=O)N[C@@H](Cc1c[nH]c2ccccc12)C(=O)N1CCC[C@H]1C(=O)N[C@@H](CCC(=O)O)C(=O)N[C@@H](CCC(=O)O)C(=O)NCC(=O)N[C@@H](CCCCN)C(=O)N[C@@H](CC(C)C)C(=O)N[C@@H](CCCNC(=N)N)C(=O)N[C@@H](CCC(=O)O)C(=O)N[C@@H](Cc1ccccc1)C(=O)N[C@@H](Cc1ccccc1)C(=O)N[C@@H](Cc1ccccc1)C(=O)N[C@@H](Cc1ccccc1)C(=O)N[C@@H](CCC(=O)O)C(=O)N[C@@H](CC(C)C)C(=O)N[C@@H](CC(=O)O)C(=O)N[C@@H](CCC(=O)O)C(=O)N[C@@H](C)C(=O)N[C@@H](CCC(=O)O)C(=O)N[C@@H](CCCNC(=N)N)C(=O)N[C@H](C(=O)N[C@@H](CC(N)=O)C(=O)N[C@H](C(=O)O)C(C)C)C(C)C)C(C)C	HeLa and HEK-293T cells	phosphatase bead binding, competitive inhibitor, PIB pulldown iBAQ LC-MS/MS, refers to: PPP6R3	–	concentration not given	reference: untreated control	log2 fold change	-0.00868
CN(C)CC#CCC(O)(c1ccccc1)C1CCCC1.Cl (stereo not shown)	Trypanosoma cruzi	reporter translation, Renilla luciferase mRNA translation	cell-free extract	40 µM	reference: DMSO	inhibition	2.3%
O=C(c1ccc(Cl)cc1)N1CCN2C(=O)N(OC(=O)N3CCOc4ccccc43)C(=O)C2C1 (stereo not shown)	Monoacylglycerol lipase ABHD2 (ABHD2, Homo sapiens, UniProt P08910)	enzyme activity, inhibitor, MS-based ABPP	SW-620 in situ	10 µM, 2 h, 37 °C	reference: compound over DMSO, lower = stronger inhibition	median ratio	1
CCCn1ncc(CN2CCCC(C(=O)c3cccc(OC)c3)C2)c1C (stereo not shown)	Trypanosoma cruzi	reporter translation, Renilla luciferase mRNA translation	cell-free extract	40 µM	reference: DMSO	inhibition	-8.2%
CC1(N2CCC(n3c([C@@H]4CCCNC4)nc4ccccc43)CC2)CCCCCCC1	ACHE	enzyme activity, inhibitor	–	–	–	IC50	inactive
C[C@H]1CN(c2n[nH]c3nc(N[C@H]4CC[C@H](NS(=O)(=O)CCC(F)(F)F)CC4)ncc23)CCO1	TP53RK (Homo sapiens, UniProt Q96S44)	inhibitor, Kinobeads competition profiling	–	0.032 µM	reference: vehicle	relative abundance	1.08
CN[C@@]1(c2ccccc2Cl)CCCCC1=O	glycine transporter	radioligand binding, radioligand displacement	–	30 µM	–	inhibition	34%
CCCN(CCc1ccsc1)C1CCc2c(O)cccc2C1.Cl (stereo not shown)	ACHE	enzyme activity, inhibitor	–	–	–	IC50	inactive
CN1CCN(c2cc(-c3ccncc3)c(-c3ccc4ccccc4c3)nn2)CC1	MC4R (Homo sapiens, UniProt P32245)	–	–	10 µM	–	inhibition	11.1%
c1ccc2cc([C@]34CNC[C@H]3C4)ccc2c1	SLC6A3 (Homo sapiens, UniProt Q01959, V152A)	inhibitor, [3H]dopamine uptake	–	1 µM, V152A mutant	reference: no inhibitor	dopamine uptake	18.2% and 19.5% and 18.7%
CN1CC[C@]23c4c5ccc(O)c4O[C@H]2[C@@H](O)C=C[C@H]3[C@H]1C5	–	G-protein activation, agonist	mouse brain homogenate	–	–	EC50	157 ± 18 nM
O=C(NCCCNc1nc(Nc2cccc(CN3CCOCC3)c2)ncc1C1CC1)C1CCC1	ACHE	enzyme activity, inhibitor	–	–	–	IC50	inactive
[2H]c1c([2H])c([C@]2([2H])CCCN2C(=O)C(C)(C)Oc2ccc3cn[nH]c3c2)c([2H])c([2H])c1C([2H])([2H])[2H]	CDK8 (Homo sapiens, UniProt P49336)	KINOMEscan	–	1 µM	reference: DMSO control	remaining binding	76%
COc1ccc2c(c1)CN(C(=O)CCN1CCC(Cc3ccccc3)CC1)CCS2.COc1ccc2c(c1)CN(C(=O)CCN1CCC(Cc3ccccc3)CC1)CCS2.O=C(O)/C=C/C(=O)O	ACHE	enzyme activity, inhibitor	–	–	–	IC50	inactive
CCOc1ccccc1C(=O)Nc1ccc(Cl)c(C(F)(F)F)c1	KAT5 (Homo sapiens, UniProt Q92993)	SPR	–	1.85 µM	higher = more binding	SPR binding response	0.15 RU
CCCCCCC[N+](CC)(CC)CCCCc1ccc(Cl)cc1.Cc1ccc(S(=O)(=O)[O-])cc1	ACHE	enzyme activity, inhibitor	–	–	–	IC50	inactive
Oc1ccc2c3c1O[C@H]1[C@@H](O)CC[C@@]4(O)[C@@H](C2)N(CC2CCC2)CC[C@]314	PROKR2 (Homo sapiens, UniProt Q8NFJ6)	β-arrestin recruitment, TANGO luminescence, refers to: PK2	–	concentration not given	reference: basal luminescence	log2 fold change	-0.372
